{"data": "Published values from different studies", "UCHL1": "Ubiquitin carboxyl-terminal hydrolase isozyme L1 (UCHL1, Homo sapiens, UniProt P09936)", "CYP2C8": "Cytochrome P450 2C8 (CYP2C8, Homo sapiens, UniProt P10632)", "note": "Lines come from different studies, so protocols differ. Numbers after ± are the reported error.", "chain of UniProt P09936 (whole entry, looked up)": "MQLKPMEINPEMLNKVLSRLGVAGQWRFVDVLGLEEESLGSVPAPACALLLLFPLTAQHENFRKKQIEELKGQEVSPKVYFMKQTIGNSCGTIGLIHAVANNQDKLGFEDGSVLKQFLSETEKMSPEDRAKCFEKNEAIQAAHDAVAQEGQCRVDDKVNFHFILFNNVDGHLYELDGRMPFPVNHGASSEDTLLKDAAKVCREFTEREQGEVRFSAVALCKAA", "chain of UniProt P10632 (whole entry, looked up)": "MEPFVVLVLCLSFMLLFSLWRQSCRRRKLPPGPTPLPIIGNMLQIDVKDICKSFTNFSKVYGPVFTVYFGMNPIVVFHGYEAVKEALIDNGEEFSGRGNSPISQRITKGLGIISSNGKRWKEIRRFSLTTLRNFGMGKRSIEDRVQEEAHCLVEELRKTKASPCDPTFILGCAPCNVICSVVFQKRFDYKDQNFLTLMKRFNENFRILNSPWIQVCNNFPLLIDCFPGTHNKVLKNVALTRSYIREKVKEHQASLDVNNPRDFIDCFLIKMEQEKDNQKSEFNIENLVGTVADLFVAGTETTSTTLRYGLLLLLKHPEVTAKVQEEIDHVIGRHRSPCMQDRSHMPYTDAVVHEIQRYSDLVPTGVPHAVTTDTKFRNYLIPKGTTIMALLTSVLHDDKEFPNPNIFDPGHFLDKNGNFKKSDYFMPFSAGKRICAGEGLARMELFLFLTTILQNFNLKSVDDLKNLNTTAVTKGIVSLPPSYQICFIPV", "chain of UniProt P08684 (whole entry, looked up)": "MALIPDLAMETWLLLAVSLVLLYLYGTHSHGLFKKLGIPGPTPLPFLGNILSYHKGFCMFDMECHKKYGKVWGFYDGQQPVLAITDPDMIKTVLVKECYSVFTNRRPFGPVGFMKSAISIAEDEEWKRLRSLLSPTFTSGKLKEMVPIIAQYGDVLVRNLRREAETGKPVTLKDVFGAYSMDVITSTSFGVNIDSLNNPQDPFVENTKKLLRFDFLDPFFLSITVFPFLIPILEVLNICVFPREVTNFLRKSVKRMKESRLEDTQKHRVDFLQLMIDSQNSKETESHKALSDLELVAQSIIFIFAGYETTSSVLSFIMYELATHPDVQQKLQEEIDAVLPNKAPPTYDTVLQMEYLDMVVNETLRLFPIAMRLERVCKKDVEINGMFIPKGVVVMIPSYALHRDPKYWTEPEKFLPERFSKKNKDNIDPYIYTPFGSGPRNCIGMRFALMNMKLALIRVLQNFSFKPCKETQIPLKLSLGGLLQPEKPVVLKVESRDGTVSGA", "chain of UniProt Q12809 (whole entry, looked up)": "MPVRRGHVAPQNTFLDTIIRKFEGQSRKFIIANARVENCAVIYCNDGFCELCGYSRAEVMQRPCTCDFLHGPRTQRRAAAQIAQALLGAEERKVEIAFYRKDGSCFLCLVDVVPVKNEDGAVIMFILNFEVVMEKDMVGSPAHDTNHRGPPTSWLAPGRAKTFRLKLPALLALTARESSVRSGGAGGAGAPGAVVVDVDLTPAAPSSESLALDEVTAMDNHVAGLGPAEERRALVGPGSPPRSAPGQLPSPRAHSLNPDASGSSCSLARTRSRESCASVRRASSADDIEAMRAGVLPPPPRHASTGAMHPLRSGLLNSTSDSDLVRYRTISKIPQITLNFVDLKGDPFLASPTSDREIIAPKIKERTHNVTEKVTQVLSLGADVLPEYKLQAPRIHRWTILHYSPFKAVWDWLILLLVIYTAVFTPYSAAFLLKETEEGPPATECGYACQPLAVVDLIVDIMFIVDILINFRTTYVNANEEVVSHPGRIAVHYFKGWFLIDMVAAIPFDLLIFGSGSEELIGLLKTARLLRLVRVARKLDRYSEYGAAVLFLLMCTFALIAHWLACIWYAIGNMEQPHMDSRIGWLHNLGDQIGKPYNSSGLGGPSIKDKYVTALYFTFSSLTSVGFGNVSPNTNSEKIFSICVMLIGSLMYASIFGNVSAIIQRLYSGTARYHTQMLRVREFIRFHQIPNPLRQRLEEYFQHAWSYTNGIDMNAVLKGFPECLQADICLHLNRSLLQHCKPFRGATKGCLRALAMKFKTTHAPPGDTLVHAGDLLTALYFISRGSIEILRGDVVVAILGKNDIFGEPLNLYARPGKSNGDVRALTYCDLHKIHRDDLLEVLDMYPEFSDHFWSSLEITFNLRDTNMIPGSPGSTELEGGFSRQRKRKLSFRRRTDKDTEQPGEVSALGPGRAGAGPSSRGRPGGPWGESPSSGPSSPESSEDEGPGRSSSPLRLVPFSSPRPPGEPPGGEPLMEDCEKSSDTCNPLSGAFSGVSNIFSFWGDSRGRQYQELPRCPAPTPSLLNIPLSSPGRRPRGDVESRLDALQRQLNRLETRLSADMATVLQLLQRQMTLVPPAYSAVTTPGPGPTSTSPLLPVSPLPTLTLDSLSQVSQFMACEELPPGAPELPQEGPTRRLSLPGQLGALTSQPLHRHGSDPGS"}
{"SMILES": "Nc1ccn([C@H]2CC[C@@H](CO)O2)c(=O)n1", "tested on": "HIV-1", "test": "MTT", "system": "MT4, RT L100I/V179D/Y181C mutant", "how to read": "relative to: CC50 over EC50", "quantity": "selectivity index", "result": "> 344"}
{"SMILES": "CCc1ccc2nc(N(CCN(C)C)C(=O)c3ccc4ncsc4c3)sc2c1", "tested on": "Trypanosoma cruzi", "test": "reporter translation, Renilla luciferase mRNA translation", "system": "cell-free extract", "conditions": "40 µM", "how to read": "relative to: DMSO", "quantity": "inhibition", "result": "-7.6%"}
{"SMILES": "Cc1cc(N)c2c(OCC(C)(C)C(=O)NC(C)C)cccc2n1", "tested on": "Salmonella typhimurium", "test": "reverse mutation, plate incorporation", "system": "TA100", "conditions": "50 µg/plate, without S9", "quantity": "mean revertant colonies", "result": "100 colonies/plate"}
{"SMILES": "Cc1cn([C@H]2C[C@H](N=[N+]=[N-])[C@@H](CO)O2)c(=O)[nH]c1=O", "tested on": "HIV-1", "test": "MTT", "system": "MT4, RT L100I/V179D/Y181C mutant", "how to read": "relative to: CC50 over EC50", "quantity": "selectivity index", "result": "> 144"}
{"SMILES": "O=C(Cc1ccccc1F)N1CCC2(CC1)N(Cc1cccc(F)c1)C(=O)C[S+]2[O-] (stereo not drawn)", "tested on": "UCHL1", "test": "covalent, intact protein LC-MS", "conditions": "12.5 µM", "quantity": "labelling", "result": "10.3%"}
{"SMILES": "CC[C@H]1[C@@H](O)[C@@H]2[C@H](CC[C@]3(C)[C@@H]([C@H](C)CCNC(=O)NS(=O)(=O)c4ccc(C(C)(C)C)cc4)CC[C@@H]23)[C@@]2(C)CC[C@@H](O)C[C@@H]12", "tested on": "Cytochrome P450 3A4 (CYP3A4, Homo sapiens, UniProt P08684)", "test": "substrate", "system": "human, plasma", "conditions": "10 mg, alone, study day 1", "quantity": "AUC(0-inf) geometric mean", "result": "360 ng·h/mL"}
{"SMILES": "Cc1oc2ccccc2c1Cc1cc(I)c(OCC(=O)O)c(I)c1", "tested on": "Voltage-gated inwardly rectifying potassium channel KCNH2 (KCNH2, Homo sapiens, UniProt Q12809)", "test": "ion current, whole-cell patch clamp", "system": "HEK293 expressing hERG1", "conditions": "concentration not given", "quantity": "effect on inactivation gating", "result": "no effect"}
{"SMILES": "CNC(=O)c1ccc(-c2cnc3ncc(Cc4ccc5ncccc5c4)n3n2)cc1F", "test": "item: Ascites", "system": "hepatocellular carcinoma patients", "conditions": "oral, 600 mg twice daily, expansion cohort, grade 3-4", "quantity": "patients with adverse event", "result": "9%"}
{"SMILES": "Nc1ccn([C@@H]2CS[C@H](CO)O2)c(=O)n1", "tested on": "HIV-1", "test": "MTT", "system": "MT4, RT A98G/V106I/V179D/Y181C/G333E mutant", "how to read": "relative to: CC50 over EC50", "quantity": "selectivity index", "result": "> 69"}
{"SMILES": "N#CC(=Cc1ccc(O)c(O)c1)C(=O)Nc1ccccc1F", "tested on": "UCHL1", "test": "covalent, intact protein LC-MS", "conditions": "12.5 µM", "quantity": "labelling", "result": "9.71%"}
{"SMILES": "CCN1/C(=C/C(C)=O)Sc2ccc(F)cc21", "system": "cynomolgus monkey", "conditions": "oral, 10 mg/kg, 1 h post-dose", "how to read": "relative to: pre-dose", "quantity": "PR interval change", "result": "102 ± 7.4%"}
{"SMILES": "C#Cc1cccc(Nc2ncnc3cc(OCCOC)c(OCCOC)cc23)c1", "tested on": "HPrEC normal prostate epithelial cells", "test": "MTT", "conditions": "6.3 µg/mL, 2% serum", "quantity": "viability", "result": "62.4%"}
{"SMILES": "CC[C@H](CO)N(CCN(N=O)[C@H](CC)CO)N=O", "tested on": "Salmonella typhimurium", "test": "plate incorporation", "system": "TA1535, water", "conditions": "1500 µg/plate, without S9 test 2", "quantity": "revertant colonies per plate", "result": "26.7 ± 5"}
{"SMILES": "CCOc1cc(CC(=O)N[C@@H](CC(C)C)c2ccccc2N2CCCCC2)ccc1C(=O)O", "tested on": "CYP2C8", "system": "human, plasma", "conditions": "0.5 mg, day 1, arithmetic mean", "quantity": "CL/F", "result": "46.9 L/h"}
{"SMILES": "CC(C)=CCCC(C)CN(C)CCc1ccccn1 (stereo not drawn)", "tested on": "Trypanosoma cruzi", "test": "reporter translation, Renilla luciferase mRNA translation", "system": "cell-free extract", "conditions": "40 µM", "how to read": "relative to: DMSO", "quantity": "inhibition", "result": "-1.4%"}
{"SMILES": "Cc1cc(Nc2ncnc3ccc(NC4=NC(C)(C)CO4)cc23)ccc1Oc1ccn2ncnc2c1", "tested on": "CYP2C8", "system": "human, plasma", "conditions": "oral, 300 mg single dose, day 1, median", "quantity": "Tmax", "result": "1 h"}
{"SMILES": "Cn1c(Cn2ccc(C(F)(F)F)c(Oc3cc(Cl)cc(C#N)c3)c2=O)n[nH]c1=O", "tested on": "HIV-1", "system": "MT4, IIIB wild type", "how to read": "relative to: CC50 over EC50", "quantity": "selectivity index", "result": "> 20000"}
{"SMILES": "Cc1cc(Nc2ccc(S(F)(F)(F)(F)F)cc2)n2nc(C(C)(F)F)nc2n1", "tested on": "Plasmodium vivax", "test": "12-lead ECG", "system": "malaria patients", "conditions": "oral, 600 mg, increase above 30 ms", "quantity": "patients with QTcF increase", "result": "0%"}
{"note": "Excerpt of the above:"}
{"SMILES": "CNC(=O)c1ccc(-c2cnc3ncc(Cc4ccc5ncccc5c4)n3n2)cc1F", "test": "item: Ascites", "system": "hepatocellular carcinoma patients", "conditions": "oral, 600 mg twice daily, expansion cohort, grade 3-4", "quantity": "patients with adverse event", "result": "9%"}
